Results collected from several papers.
Numbered parts are unrelated; each lists some results of a single study. Numbers after ± are the reported error.

Sample 1
Compound: C[C@@H]1CN(c2ccc(-c3cc(C(=O)NCCOCCOCCOCCOCCOCCOCCNC(=O)/C=C/c4[nH]cc(C(=O)N[C@@H](CC(N)=O)c5ccc(F)c(Cl)c5)c4-c4ccc(Cl)cc4F)ccc3F)cc2NC(=O)c2ccc(F)cc2C(F)(F)F)C[C@H](C)N1C
Read-out: thermal unfolding
Method: differential scanning fluorimetry
Tested at: 5.5 µM
Reading: higher = more unfolded
WDR5: WD repeat-containing protein 5 (WDR5, Homo sapiens, UniProt P61964)
DCAF1: DDB1- and CUL4-associated factor 1 (DCAF1, Homo sapiens, UniProt Q9Y4B6)
UniProt Q9Y4B6, sequence (whole entry, looked up): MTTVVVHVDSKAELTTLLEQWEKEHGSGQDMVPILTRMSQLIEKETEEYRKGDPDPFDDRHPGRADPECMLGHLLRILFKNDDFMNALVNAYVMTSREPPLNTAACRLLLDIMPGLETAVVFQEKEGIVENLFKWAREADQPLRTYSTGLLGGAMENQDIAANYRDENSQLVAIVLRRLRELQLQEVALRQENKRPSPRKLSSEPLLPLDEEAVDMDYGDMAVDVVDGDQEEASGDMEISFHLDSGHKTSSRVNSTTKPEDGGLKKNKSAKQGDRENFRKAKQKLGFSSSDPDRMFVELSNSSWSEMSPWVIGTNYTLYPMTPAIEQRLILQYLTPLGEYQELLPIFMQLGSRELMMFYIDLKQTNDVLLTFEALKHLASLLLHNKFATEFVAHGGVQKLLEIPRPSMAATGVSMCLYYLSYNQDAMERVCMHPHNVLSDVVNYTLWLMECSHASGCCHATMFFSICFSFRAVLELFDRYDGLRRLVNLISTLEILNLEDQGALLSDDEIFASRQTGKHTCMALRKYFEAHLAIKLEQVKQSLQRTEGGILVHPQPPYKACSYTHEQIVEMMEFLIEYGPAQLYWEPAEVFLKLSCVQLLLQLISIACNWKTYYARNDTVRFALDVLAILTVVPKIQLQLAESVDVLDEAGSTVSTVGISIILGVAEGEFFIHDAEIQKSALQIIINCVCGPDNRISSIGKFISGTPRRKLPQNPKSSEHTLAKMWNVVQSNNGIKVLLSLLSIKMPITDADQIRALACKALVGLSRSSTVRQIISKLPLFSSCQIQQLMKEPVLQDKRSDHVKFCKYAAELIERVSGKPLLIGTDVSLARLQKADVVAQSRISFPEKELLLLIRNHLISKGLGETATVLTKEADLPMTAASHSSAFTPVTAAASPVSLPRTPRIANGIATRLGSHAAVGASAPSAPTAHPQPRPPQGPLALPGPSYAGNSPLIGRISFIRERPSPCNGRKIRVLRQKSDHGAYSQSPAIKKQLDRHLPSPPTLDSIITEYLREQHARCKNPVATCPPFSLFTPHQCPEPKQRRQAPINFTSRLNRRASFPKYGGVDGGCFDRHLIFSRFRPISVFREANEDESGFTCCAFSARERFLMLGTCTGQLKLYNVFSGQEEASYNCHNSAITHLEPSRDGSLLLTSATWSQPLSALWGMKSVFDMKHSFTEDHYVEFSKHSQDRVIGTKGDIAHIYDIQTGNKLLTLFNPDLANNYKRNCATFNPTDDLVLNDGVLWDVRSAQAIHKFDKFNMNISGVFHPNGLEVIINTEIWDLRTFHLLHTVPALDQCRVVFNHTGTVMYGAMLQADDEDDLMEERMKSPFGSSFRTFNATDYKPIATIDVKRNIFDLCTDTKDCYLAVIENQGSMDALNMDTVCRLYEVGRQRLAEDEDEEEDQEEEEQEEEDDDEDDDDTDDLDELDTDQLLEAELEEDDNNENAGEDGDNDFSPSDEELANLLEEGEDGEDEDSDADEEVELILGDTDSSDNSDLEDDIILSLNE
For WDR5; 77.41 °C: “SYPRO Orange fluorescence” read 58400 a.u.
WDR5; 61.01 °C — “SYPRO Orange fluorescence”: 15100 a.u.
DCAF1; 91.81 °C — “SYPRO Orange fluorescence”: 31000 a.u.
The “SYPRO Orange fluorescence” was 62100 a.u. (WDR5; 85.01 °C).
It gave 53100 a.u. for “SYPRO Orange fluorescence” (DCAF1; 62.21 °C).
It gave 36800 a.u. for “SYPRO Orange fluorescence” (DCAF1; 84.01 °C).
The “SYPRO Orange fluorescence” was 19700 a.u. (WDR5; 67.21 °C).
The “SYPRO Orange fluorescence” was 16000 a.u. (WDR5; 56.61 °C).
For DCAF1; 79.21 °C: “SYPRO Orange fluorescence” read 40500 a.u.
WDR5; 32.4 °C — “SYPRO Orange fluorescence”: 13800 a.u.
For DCAF1; 71.21 °C: “SYPRO Orange fluorescence” read 47000 a.u.

Sample 2
Compound: CCN1/C(=C/C=C2\CCCC(/C=C/C3=[N+](CC)c4ccccc4C3(C)C)=C2NCCCCCCCCN2CCC(Nc3nc4ccccc4n3Cc3ccc(F)cc3)CC2)C(C)(C)c2ccccc21
Cell line: U-87 MG
Tested at: concentration not given
Reference: DMSO
item: HILPDA mRNA — “log2 fold change”: 3.51.
For item: EBF2 mRNA: “log2 fold change” read -1.3.
item: FAAP100 mRNA — “log2 fold change”: -0.907.
It gave -0.881 for “log2 fold change” (item: GPR85 mRNA).
It gave -2.08 for “log2 fold change” (item: ARHGAP11A mRNA).
It gave -1.42 for “log2 fold change” (item: TBC1D4 mRNA).
It gave -1.78 for “log2 fold change” (item: TAMALIN mRNA).
It gave 1.11 for “log2 fold change” (item: ANKRD42 mRNA).
item: MAMLD1 mRNA — “log2 fold change”: -1.12.
The “log2 fold change” was 1.03 (item: OTUD1 mRNA).
For item: TACC3 mRNA: “log2 fold change” read -1.92.
It gave -3.32 for “log2 fold change” (item: TCHH mRNA).
item: TBX18 mRNA — “log2 fold change”: -1.04.
For item: SPRY2 mRNA: “log2 fold change” read 0.872.
It gave 1.05 for “log2 fold change” (item: SPIRE1 mRNA).
item: HIVEP2 mRNA — “log2 fold change”: 1.89.

Sample 3
Compound: Cc1ccc(O)c(C)c1-c1cnc2[nH]c(-c3cnc(N4CCC(CN5CCN(c6ccc7c(c6)CN(C6CCC(=O)NC6=O)C7=O)CC5)CC4)nc3)cc2c1C#N (stereo not drawn)
Target: Membrane-associated tyrosine- and threonine-specific cdc2-inhibitory kinase (PKMYT1, Homo sapiens, UniProt Q99640)
Target sequence (Q99640 1-499): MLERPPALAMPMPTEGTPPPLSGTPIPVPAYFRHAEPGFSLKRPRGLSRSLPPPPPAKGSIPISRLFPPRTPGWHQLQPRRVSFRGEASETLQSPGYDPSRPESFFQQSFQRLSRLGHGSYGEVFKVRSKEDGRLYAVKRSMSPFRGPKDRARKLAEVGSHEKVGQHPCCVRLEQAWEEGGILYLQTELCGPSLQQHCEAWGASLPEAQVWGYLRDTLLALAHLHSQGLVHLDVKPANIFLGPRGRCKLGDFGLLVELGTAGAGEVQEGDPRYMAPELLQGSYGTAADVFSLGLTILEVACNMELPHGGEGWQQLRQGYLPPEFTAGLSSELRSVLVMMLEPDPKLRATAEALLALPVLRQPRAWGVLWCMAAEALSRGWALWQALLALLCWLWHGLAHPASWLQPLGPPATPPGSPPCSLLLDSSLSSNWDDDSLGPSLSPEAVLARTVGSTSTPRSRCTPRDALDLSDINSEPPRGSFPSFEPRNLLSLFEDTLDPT
The inhibition was 101% (cell-free assay, inhibitor, TR-FRET; 1 µM).
cell-free assay, inhibitor, TR-FRET; 152 pM — inhibition: -1.78%.
The inhibition was 23.4% (0.00137 µM).
cell-free assay, inhibitor, TR-FRET; 0.3333 µM — inhibition: 104%.
0.00412 µM — inhibition: 61.3%.
It gave 99.1% for inhibition (cell-free assay, inhibitor, TR-FRET; 37.04 nM).
The inhibition was -1.5% (0.000152 µM).
It gave 92.1% for inhibition (cell-free assay, inhibitor, TR-FRET; 12.35 nM).

Single results of other studies
For `CCOC(=O)/C=C/CNCCCCN1c2cc(Cl)ccc2CCc2cnn(C)c21.O=C(O)/C=C\C(=O)O`, the half-life was 0.1 ± 0.00167 h (mouse plasma; 5 µM).
`CCONC(=O)/C=C/CNCCCCN1c2cc(Cl)ccc2CCc2cnn(C)c21` has an IC50 of 5.4 µM (NCI-H292; cell growth or viability, ATP luminescence).
With `Cn1ncc2c1N(CCCCNC/C=C/C#N)c1cc(Cl)ccc1CC2.O=C(O)/C=C\C(=O)O` the half-life was 1.5 ± 0.178 h (human plasma; 5 µM).
For `N#C/C=C/CNCCCCN1c2ccccc2CCc2ccc(Cl)cc21.O=C(O)/C=C\C(=O)O`, the half-life was 6.38 ± 1.07 h (human plasma; 5 µM).

A few entries again (sample 1):
For DCAF1; 71.21 °C: “SYPRO Orange fluorescence” read 47000 a.u.
It gave 53100 a.u. for “SYPRO Orange fluorescence” (DCAF1; 62.21 °C).
It gave 36800 a.u. for “SYPRO Orange fluorescence” (DCAF1; 84.01 °C).
The “SYPRO Orange fluorescence” was 19700 a.u. (WDR5; 67.21 °C).
